Experimental data pooled from the literature.
Protocols differ between the studies behind these lines. Numbers after ± are the reported error.
Urease: Urease (Canavalia ensiformis, UniProt P07374)
gag-pol integrase: Gag-Pol polyprotein, integrase (gag-pol, Human immunodeficiency virus 1, UniProt P12497)
ACE: Angiotensin-converting enzyme (ACE, Homo sapiens, UniProt P12821)
KCNH2: Voltage-gated inwardly rectifying potassium channel KCNH2 (KCNH2, Homo sapiens, UniProt Q12809)
histidine kinase ComD: histidine kinase ComD (Streptococcus pneumoniae serotype 2, UniProt A0A0H2ZM50)
HDAC1: Histone deacetylase 1 (HDAC1, Homo sapiens, UniProt Q13547)
CTSL: Procathepsin L (CTSL, Homo sapiens, UniProt P07711)

| Structure (SMILES) | target | test | test system | setting | IC50 |
| --- | --- | --- | --- | --- | --- |
| COC(=O)c1ccc2c(c1)NC(=O)/C2=C(\Nc1ccc(N(C)C(=O)CN2CCN(CCOCCOCCNC(=O)c3cc(OCc4cn(CCCCN5C[C@@H]6C[C@H]5C(=O)N[C@@H](CC(C)C)C(=O)N[C@@H](CCCNC(=N)N)C(=O)NCC(=O)N[C@@H](CC(=O)O)C(=O)N[C@@H](CC(C)C)C(=O)N6)nn4)cc(OCc4cn(CCCCN5C[C@@H]6C[C@H]5C(=O)N[C@@H](CC(C)C)C(=O)N[C@@H](CCCNC(=N)N)C(=O)NCC(=O)N[C@@H](CC(=O)O)C(=O)N[C@@H](CC(C)C)C(=O)N6)nn4)c3)CC2)cc1)c1ccccc1 | Vascular endothelial growth factor receptor 2 (KDR, Homo sapiens, UniProt P35968) | enzyme activity, inhibitor, radiometric | – | – | 0.035 µM |
| O=C(CS)NCCCCCNC(=O)c1ccccc1 | Polyamine deacetylase HDAC10 (HDAC10, Homo sapiens, UniProt Q969S8) | enzyme activity, inhibitor | – | – | 8.71 µM |
| Cc1cc(S(=O)(=O)Nc2ncccn2)c(F)cc1N(C)C1CCN([C@H](C)c2ccccc2)CC1 | Sodium channel protein type 8 subunit alpha (SCN8A, Homo sapiens, UniProt Q9UQD0) | sodium current, inhibitor, automated patch clamp | – | inactivated state, Vh -45 mV | 0.078 µM |
| O=C(O)c1cc[c]([Hg][Cl])cc1 | Trypanothione synthetase (Trypanosoma brucei brucei, UniProt Q586P2) | enzyme activity, BIOMOL Green phosphate release | – | 1 h preincubation | 2 µM |
| Cc1ccc2c(n1)c(-c1cccc(S(C)(=O)=O)c1)c(C)n2C/C(F)=C/CN | Lysyl oxidase homolog 2 (LOXL2, Homo sapiens, UniProt Q9Y4K0) | enzyme activity, inhibitor, fluorescence | – | with preincubation | 0.01 µM |
| CCC(CC)OC1C=C(C(=O)OC(C)OC(=O)C(N)C(C)CC)CC(NC(=N)N)C1NC(C)=O (mixture of isomers) | Solute carrier family 15 member 1 (SLC15A1, Homo sapiens, UniProt P46059) | transporter uptake, inhibitor, radiometric | – | pH 6 | < 1000 µM |
| CN(C)CP(C)(=O)O | Urease | enzyme activity, inhibitor, absorbance | – | pH 7 | 14.4 µM |
| O=C1c2c(ccc(O)c2O)CN1Cc1ccc(F)c(Cl)c1 | gag-pol integrase | 3'-processing, inhibitor, gel-based | – | recombinant wild-type integrase | 83.9 ± 6.8 µM |
| COc1ccc(/C=N/NC(=O)COc2ccc(Sc3ccc(OCC(=O)N/N=C/c4ccc(OC)c(OC)c4)cc3)cc2)cc1OC | Cholinesterase (BCHE, Equus caballus, UniProt P81908) | enzyme activity, inhibitor, Ellman | – | – | 48.6 µM |
| CC(C)[C@H](N)C(=O)N[C@@H](CCCNC(=N)N)C(=O)N[C@@H](Cc1ccc(O)cc1)C(=O)O | ACE | enzyme activity, inhibitor, absorbance | – | – | < 0.1 µM |
| CCCC[C@H](NC(=O)[C@H](C)NC(=O)[C@H](CCC(=O)O)NC(=O)[C@H](Cc1ccccc1)NC[C@H](Cc1ccccc1)NC(=O)[C@@H](NC(=O)[C@@H](N)CCCNC(=N)N)C(C)C)C(=O)O | Gag-Pol polyprotein, protease (gag-pol, Human immunodeficiency virus 1, UniProt P12497) | enzyme activity, inhibitor, FRET | NL4-3 wild type | – | 0.031 ± 0.0146 µM |
| Cc1ccc(-c2nc3c(=O)n(C)c(=O)nc-3n(C)n2)cc1 | Glutathione reductase, mitochondrial (GSR, Homo sapiens, UniProt P00390) | enzyme activity, inhibitor | – | – | > 100 µM |
| CC(C)[C@H](NC(=O)c1ccc(CNc2nc3c(c(=O)[nH]2)CCC3)cc1)C(=O)NC1CNC1 | 72 kDa type IV collagenase (MMP2, Homo sapiens, UniProt P08253) | enzyme activity, inhibitor | – | – | > 5 µM |
| Nc1ncnc2c1ncn2[C@@H]1O[C@H](CSCCNC(=O)NCC2CCCCC2)[C@@H](O)[C@H]1O | RNA demethylase ALKBH5 (Homo sapiens, UniProt Q6P6C2) | RNA demethylase activity, inhibitor | – | – | > 50 µM |
| O=C1c2c(ccc(O)c2O)CN1Cc1cccc(Cl)c1F | gag-pol integrase | 3'-processing, inhibitor, gel-based | – | recombinant wild-type integrase | 158 ± 22.3 µM |
| Clc1cc2oc3cc(Cl)c(Cl)cc3c2cc1Cl | Aryl hydrocarbon receptor (Ahr, Mus musculus, UniProt P30561) | radioligand binding, hydroxyapatite competition binding | in vitro expressed receptor | pH 7.5, added: [3H]TCDD 2 nM | 0.00162 µM |
| C[C@H](NCc1ccc(-c2ccc(C(F)(F)F)cc2)cc1)C(N)=O | KCNH2 | ligand displacement, FP | – | 4 h, cell membranes | > 50 µM |
| N=C(N)NCCC[C@H](NC(=O)[C@@H](N)CCCCN)C(=O)N1CCC[C@H]1C(=O)N1CCC[C@H]1C(=O)NCC(=O)N[C@@H](Cc1ccccc1)C(=O)N[C@@H](CO)C(=O)N1CCC[C@H]1C(=O)N[C@@H](Cc1ccccc1)C(=O)N[C@@H](CCCCN)C(=O)O | B1 bradykinin receptor (BDKRB1, Homo sapiens, UniProt P46663) | – | – | – | 0.78 µM |
| CC[C@H](C)[C@H](NC(=O)[C@H](CCCNC(=N)N)NC(=O)[C@H](CCSC)NC(=O)[C@H](C)N)C(=O)N[C@@H](CO)C(=O)N[C@@H](CCCNC(=N)N)C(=O)N[C@H](C(=O)N[C@H](C(=O)N[C@@H](CCCNC(=N)N)C(=O)N[C@H](CC(=O)O)C(=O)N[C@@H](Cc1ccccc1)C(=O)N[C@@H](CC(C)C)C(=O)N[C@@H](Cc1ccccc1)C(=O)N[C@@H](CCC(N)=O)C(=O)N[C@@H](CCCNC(=N)N)C(=O)N[C@@H](CCCCN)C(=O)N[C@@H](CCCCN)C(=O)O)[C@@H](C)CC)[C@@H](C)CC | histidine kinase ComD | – | Streptococcus pneumoniae | – | > 1 µM |
| C[C@H](CCC(=O)N[C@H](CC(c1c[nH]c2ccccc12)c1c[nH]c2ccccc12)C(=O)O)[C@H]1CC[C@H]2[C@@H]3CC[C@@H]4C[C@H](O)CC[C@]4(C)[C@H]3CC[C@]12C | Beta-galactoside alpha-2,6-sialyltransferase 1 (ST6GAL1, Homo sapiens, UniProt P15907) | enzyme activity, UPLC | – | – | 11.3 ± 0.4 µM |

| Structure (SMILES) | target | test | test system | setting | IC50 |
| --- | --- | --- | --- | --- | --- |
| COc1ccc(N=Nc2cccc(NC(=O)CCCCCCC(=O)NO)c2)cc1 | HDAC1 | enzyme activity, inhibitor | – | cis isomer, irradiated | 0.047 ± 0.011 µM |
| Cc1cc(Nc2nc(C[C@@]3(C(=O)O)CCN(Cc4cccc(Cl)c4F)[C@H](C)C3)cc(C)c2F)n[nH]1 | KCNH2 | ion current, inhibitor, patch clamp | – | – | 26.7 µM |
| Nc1nc2c(c(=O)[nH]1)[n+](Cc1ccc(S(=O)(=O)F)cc1)cn2[C@@H]1O[C@H](COP(=O)(O)O)[C@@H](O)[C@H]1O | 7-methylguanosine phosphate-specific 5'-nucleotidase (NT5C3B, Homo sapiens, UniProt Q969T7) | enzyme activity, inhibitor, absorbance | – | pH 7.5 | 16.2 µM |
| CCCC(NC(=O)C(CC(C)C)NC(=O)OCc1ccccc1)C(=O)C(=O)NCc1ccccn1 (stereo not drawn) | CTSL | enzyme activity, inhibitor | – | pH 5.5 | 0.00162 µM |
| CSCC[C@H](NC(=O)[C@H](Cc1ccccc1)NC(=O)[C@H](Cc1c[nH]cn1)NC(=O)CNC(=O)[C@@H](NC(=O)[C@H](C)NC(=O)[C@H](Cc1c[nH]c2ccccc12)NC(=O)[C@H](CCC(N)=O)NC(=O)[C@@H]1CCC(=O)N1)C(C)C)C(N)=O | Neuromedin-B receptor (NMBR, Homo sapiens, UniProt P28336) | NMBR activity, cell-based | – | – | < 0.001 µM |
| COC1CC(=O)N(C)C=CCCCC(=O)N(C)C(C(C)C)C(=O)N(C)C(CC(C)C)C(=O)OC(C(C)C)CC(C)C1 (stereo not drawn) | Substance-P receptor (TACR1, Homo sapiens, UniProt P25103) | β-arrestin recruitment, antagonist | – | – | > 100 µM |
| CC[C@H](C)[C@H](NC(=O)[C@H](Cc1ccc(O)cc1)NC(=O)[C@@H](NC(=O)[C@H](CCCNC(=N)N)NC(=O)[C@@H](N)CC(=O)O)C(C)C)C(=O)N[C@@H](Cc1cnc[nH]1)C(=O)N1CCC[C@H]1C(=O)N[C@@H](Cc1ccccc1)C(=O)O | ACE | enzyme activity, inhibitor, HPLC | – | – | 82 µM |
| O=C(NC12CC3CC(CC(C3)C1)C2)c1cc2cc(Cl)ccc2[nH]1 | Cytochrome P450 2D6 (CYP2D6, Homo sapiens, UniProt P10635) | inhibitor | – | – | > 50 µM |
| Cc1cc(C(=O)COn2nnc3ccc(S(C)(=O)=O)cc32)c(C)n1C | CTSL | enzyme activity, inhibitor, FRET | – | – | > 100 µM |
| CC[C@H](C)[C@H](NC(=O)[C@H](CCCNC(=N)N)NC(=O)[C@H](CCCNC(=N)N)NC(=O)[C@@H]1CCCN1C(=O)[C@@H]1CCCN1C(=O)[C@H](CCCNC(=N)N)NC(=O)[C@@H]1CCCN1C(=O)[C@H](CCCNC(=N)N)NC(=O)[C@@H]1CCCN1C(=O)[C@H](CC(C)C)NC(=O)[C@H](Cc1ccc(O)cc1)NC(=O)[C@@H]1CCCN1C(=O)[C@@H]1CCCN1C(=O)[C@H](CCCCN)NC(=O)[C@H](CC(=O)O)NC(=O)[C@@H](N)C(C)C)C(=O)N[C@@H](Cc1ccc(O)cc1)C(=O)N[C@@H](CC(N)=O)C(=O)N[C@@H](CCCNC(=N)N)C(=O)N1CCN(c2cc3c(cc2F)c(=O)c(C(N)=O)cn3C2CC2)CC1 | DNA gyrase (gyrA/gyrB, Escherichia coli, UniProt P0AES4+P0AES6) | enzyme activity, inhibitor | – | – | 2.5 µM |
| O=C(NCc1nc(-c2ccc(Br)cc2)c[nH]1)Nc1ncc(Sc2ccccn2)s1 | enoyl-ACP reductase FabK (Clostridioides difficile, UniProt A0A031WIF2) | enzyme activity, inhibitor, NADH fluorescence | – | added: crotonyl-CoA 325 µM | 1.27 µM |
| Cc1cc2c(C(=O)Cc3ccccc3)c(O)c(O)cc2c(O)c1-c1c(C)cc2c(C(=O)Cc3ccccc3)c(O)c(O)cc2c1O | Induced myeloid leukemia cell differentiation protein Mcl-1 (MCL1, Homo sapiens, UniProt Q07820) | ligand displacement, FP | – | – | 0.52 µM |
| CSCC[C@H](NC(=O)[C@H](Cc1c[nH]cn1)NC(=O)[C@H](Cc1c[nH]cn1)NC(=O)[C@H](CCCCN)NC(=O)[C@@H](N)C(C)C)C(=O)N[C@@H](Cc1ccc(O)cc1)C(=O)N[C@H](C(=O)N[C@@H](CO)C(=O)NCC(=O)N[C@@H](CCCCN)C(=O)O)C(C)C | DNA dC->dU-editing enzyme APOBEC-3G (APOBEC3G, Homo sapiens, UniProt Q9HC16) | deamination activity, inhibitor, PCR/StuI restriction | – | pH 7.4, 37 °C, added: ssDNA substrate 1 fmol/µL | > 100 µM |
| NC(=O)NCC(=O)NC1CCCCC1 | Urease | enzyme activity, inhibitor, absorbance | – | – | 12.9 µM |
| O=C1c2ccccc2[Se](=O)N1c1ccccc1 (stereo not drawn) | HDAC1 | enzyme activity, inhibitor, fluorescence | – | – | 2.26 µM |
| CC(=O)CCC1C(=O)NC(C(C)C)C(=O)NC(Cc2cccc(O)c2)C(=O)N2CCCC(N2)C(=O)OC(C(C)=CC=CC(=O)N2CCCCO2)CC=CC=CC(O)C(C)C1O (stereo not drawn) | ATP-binding cassette sub-family C member 2 (ABCC2, Homo sapiens, UniProt Q92887) | efflux transport, inhibitor | membrane vesicles | added: estradiol 17β-glucuronide 1 µM | > 50 µM |
| CC[C@H](C)[C@H](NC(=O)[C@H](Cc1ccccc1)NC(=O)[C@@H]1CCNC(=O)NCCC[C@H](NC(=O)[C@H](CO)NC(=O)[C@H](CC(C)C)NC(=O)[C@H](CCCNC(=N)N)NC(=O)[C@H](CCSC)NC(=O)[C@H](C)N)C(=O)N[C@@H](Cc2ccccc2)C(=O)N[C@@H](Cc2ccccc2)C(=O)N[C@@H](CCCNC(=N)N)C(=O)N1)C(=O)N[C@@H](CC(C)C)C(=O)N[C@@H](CCC(N)=O)C(=O)N[C@@H](CCCNC(=N)N)C(=O)N[C@@H](CCCCN)C(=O)N[C@@H](CCCCN)C(=O)O | histidine kinase ComD | – | Streptococcus pneumoniae cells, Streptococcus pneumoniae | – | > 1 µM |
| CCCCCc1cc(O)c2c(c1)OC(C)(C)C1CCC(C(=O)OC3OC(C(=O)O)C(O)C(O)C3O)=CC21 (stereo not drawn) | Cytochrome P450 2B6 (CYP2B6, Homo sapiens, UniProt P20813) | enzyme activity, inhibitor | human, liver microsomes | pH 7.4 | 5.3 µM |
| CC(C)P(=[Se])(NP(=[Se])(C(C)C)C(C)C)C(C)C | Alpha-amylase (Bacillus subtilis, UniProt P00691) | enzyme activity, inhibitor, absorbance | – | pH 6.9 | 372 µM |
